Measurements of several laboratories.
Each numbered part is a random draw from the data of one study; scales do not carry over between parts. Changes are numbered by the printed parent chain.

Set 1 — method: DHFR PCA, dose-response; medium: yeast; notes: Hill fit, mean, not affinity; with: (+)-ABA, dose series; reading: lower = more sensitive; quantity: ABA EC50
Target: ABI1, truncated, D143A, DHFR fusion (Arabidopsis thaliana, UniProt P49597)
Starting sequence: PYL1, truncated, DHFR fusion (Arabidopsis thaliana, UniProt Q8VZS8); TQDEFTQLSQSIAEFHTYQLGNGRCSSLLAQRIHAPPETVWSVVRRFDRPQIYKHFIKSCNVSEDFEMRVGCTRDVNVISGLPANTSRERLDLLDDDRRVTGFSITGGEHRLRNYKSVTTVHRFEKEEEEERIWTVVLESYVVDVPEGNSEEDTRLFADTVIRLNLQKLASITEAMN
G21H: 3.31 µM
H34C: 1.67 µM
E152R: 7.02 µM
I133N: 1.49 µM
V100M: 9.47 µM
N85A: 2.61 µM
T73R: 8.15 µM
H34P: 12.9 µM
N77L: 4.31 µM
T1S: 1.83 µM
S104Q: 59 µM
P146L: 208 µM
V76L: 3.57 µM
I133M: 1.92 µM
Q167K: 0.645 µM
R111W: 300 µM
T101E: 508 µM
P37F: 153 µM
Q19N: 2.91 µM
D96W: 251 µM
G23L: 18.8 µM
R155K: 3.27 µM
P37K: 187 µM
R69S: 2.93 µM
L20S: 3.12 µM

Set 2 — target: CCNF, cyclin fold, Cln2 fusion (human); method: yeast growth competition, sequencing; medium: yeast; notes: strong parent motif; relative to: not given; reading: higher = stronger binding; quantity: normalised enrichment score
Starting sequence: CABLES2 docking peptide (human); ICAKRSLCAAFSV
ACAKRSLCAAFSV [I1A]: 1.78
ICAARSLCAAFSV [K4A]: 1.5
ICAKRSLAAAFSV [C8A]: 4.23
IAAKRSLCAAFSV [C2A]: 2.03
ICAKRSLCAAFSA [V13A]: 2.6

Set 3 — method: protein-binding microarray; form: double-stranded DNA, one strand shown; medium: in vitro; tested at: 2200 nM top; notes: 60-bp whole probe; with: salmon DNA 0.4 mg/ml; relative to: random background probes; reading: higher = stronger binding; quantity: fitted relative affinity; constant ends, left off below: GCCTAGCAC … GTCTTGATTCGCTTGACGCTGCTG
Target: Interferon regulatory factor 7, full length, phosphomimetic (IRF7, Homo sapiens, UniProt Q92985, residues 1-503, S471D/S472D/S475D/S476D/S477D/S483D/S484D/S487D)
Construct (chain): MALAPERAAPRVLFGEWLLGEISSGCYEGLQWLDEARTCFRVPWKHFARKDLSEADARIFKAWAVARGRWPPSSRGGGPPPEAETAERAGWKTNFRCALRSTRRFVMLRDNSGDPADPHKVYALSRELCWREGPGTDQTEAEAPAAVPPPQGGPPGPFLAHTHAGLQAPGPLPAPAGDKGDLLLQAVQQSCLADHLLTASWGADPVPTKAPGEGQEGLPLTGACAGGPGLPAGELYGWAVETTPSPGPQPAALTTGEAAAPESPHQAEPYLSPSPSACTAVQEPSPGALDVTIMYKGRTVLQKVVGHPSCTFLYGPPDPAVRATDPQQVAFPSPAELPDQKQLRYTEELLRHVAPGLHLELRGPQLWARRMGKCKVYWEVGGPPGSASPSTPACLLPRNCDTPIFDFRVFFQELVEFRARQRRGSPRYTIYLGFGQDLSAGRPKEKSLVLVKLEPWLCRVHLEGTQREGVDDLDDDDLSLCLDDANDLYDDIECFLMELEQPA
GAGGAGATGAGAAACGATGAGTGCTAG: -0.374 z-score
TTAGGGTTCGACACTGGGTTAGTGCTA: -0.352 z-score
TTAGGTCACGGACTGGGTTAGTGCTAG: -0.56 z-score
TGAGGTTTCCTTTCCCTTTAGTGCTAG: 4.59 z-score
GTATATATAATATATATTCATGTGCTA: 0.25 z-score
GATGATTTCAGTTCCGAGACGTGCTAG: 1.9 z-score
TCAATTTTCATTATTGCACTGTGCTAG: 2.51 z-score
AACGGTTTCGACTTTCGGGACGTGCTA: 8.62 z-score
TTAGGTTTCCTTTCCCTGTAGTGCTAG: 4.41 z-score
CTAGGACTGGACTTTCGGTTAGTGCTA: 4.7 z-score
AATAGCTTTTCATTTTTTAACGTGCTA: 0.856 z-score
TCAACTCAGCACTTTGGCACTGTGCTA: -0.326 z-score
TTAGGTTCCCTACTGCTTTAGTGCTAG: 0.813 z-score
GACGGATTGCTTCTCCTGACGTGCTAG: 0.834 z-score
TTAGGACTGCTTCTCCTTTGGTGCTAG: 0.657 z-score
TCAGATATCGGGTTTCGATTAGTGCTA: 2.99 z-score
TTAGGCATCGGTCTCGGTTAGTGCTAG: -0.0422 z-score
GACGATTTCAGACTGAAGACGTGCTAG: 0.0217 z-score
TAAGATCTCAGTCTCGATTAGTGCTAG: 0.484 z-score

Set 4 — target: DDIT3, bZIP domain (human); method: DHFR protein complementation; medium: yeast; relative to: wild-type JUN-FOS pair; reading: higher = stronger binding; quantity: binding fitness
Notes: single substitutions, most at no-binding floor
Starting sequence: JUN, bZIP domain (human); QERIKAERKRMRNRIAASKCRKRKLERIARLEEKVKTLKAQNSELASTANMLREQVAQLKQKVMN; partner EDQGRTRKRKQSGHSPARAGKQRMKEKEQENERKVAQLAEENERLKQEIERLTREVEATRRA
K34E: 0.00684 natural log
Q55Y: -0.0848 natural log
K34L: 0.0866 natural log
V56G: -0.992 natural log
L38P: -1.19 natural log
R30M: 0.114 natural log
A57E: 0.0811 natural log
Q41W: -1.14 natural log
E54C: -0.269 natural log
L31Y: -0.46 natural log
S47P: -1.12 natural log
A57T: 0.0344 natural log
E44V: 0.00681 natural log
A49P: -1.14 natural log
E54W: -0.457 natural log

Some of these lines once more (set 1):
N85A: 2.61 µM
T73R: 8.15 µM
H34P: 12.9 µM
